# Measurements from different studies.
# A part holds a random share of what one study measured. Changes are numbered by the printed parent chain.

# Block 1
# Target: Sal-like protein 4, full length isoform B (SALL4, Homo sapiens, UniProt Q9UJQ4-2, residues 1-616)
# Technique: universal PBM
# Molecule type: double-stranded DNA, one strand shown
# Medium: in vitro
# Concentration: not given
# Notes: 8-mer, flanks averaged, mean of replicates
# Direction: higher = stronger binding
Sequence,E-score
CCCTGAAG,-0.278
AGAACAAC,0.0335
GGATTCGA,-0.127
TATCGGGA,0.0141
AACTCTCA,0.0703
AGAACAAG,0.198
GAGTAGGC,-0.204
AACTGATC,-0.0959

# Block 2
# Target: CCNF, cyclin fold, Cln2 fusion (human)
# Technique: yeast growth competition, sequencing
# Medium: yeast
# Notes: weak parent motif
# Relative to: not given
# Direction: higher = stronger binding
# Parent: PKN2 docking peptide (human); VSAVQKLDFSDTM; partner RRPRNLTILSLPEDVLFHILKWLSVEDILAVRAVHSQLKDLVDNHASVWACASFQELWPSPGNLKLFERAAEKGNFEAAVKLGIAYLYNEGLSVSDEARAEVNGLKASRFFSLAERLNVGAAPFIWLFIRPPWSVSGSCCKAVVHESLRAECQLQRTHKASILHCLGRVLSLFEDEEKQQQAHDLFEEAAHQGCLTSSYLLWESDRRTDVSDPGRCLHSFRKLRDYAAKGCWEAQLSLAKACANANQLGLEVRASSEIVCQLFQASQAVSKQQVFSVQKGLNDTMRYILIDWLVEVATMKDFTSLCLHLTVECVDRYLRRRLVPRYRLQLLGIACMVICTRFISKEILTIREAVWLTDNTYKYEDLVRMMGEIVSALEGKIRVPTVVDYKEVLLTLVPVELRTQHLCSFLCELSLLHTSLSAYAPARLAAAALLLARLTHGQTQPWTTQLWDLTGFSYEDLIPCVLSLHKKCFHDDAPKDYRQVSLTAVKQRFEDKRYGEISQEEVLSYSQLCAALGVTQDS
Variant,normalised enrichment score
K6I,-0.924
T12G,0.468
D11G,1.18
L7V,-0.353
S2Q,0.804
L7G,-0.228

# Block 3
# Target: RNA binding protein fox-1 homolog 2, RRM domain, GST-SBP tag (RBFOX2, Homo sapiens, UniProt O43251-10, residues 100-194)
# Technique: RNA Bind-n-Seq
# Molecule type: RNA
# Medium: in vitro
# Concentration: 365 nM
# Notes: natural RNA segment, single round, ends assumed
# Relative to: no-protein control
# Direction: higher = stronger binding
# Target sequence (chain): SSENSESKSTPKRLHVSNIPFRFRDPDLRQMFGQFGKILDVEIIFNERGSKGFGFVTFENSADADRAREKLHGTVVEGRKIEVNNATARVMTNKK
Sequence,RBNS enrichment (R)
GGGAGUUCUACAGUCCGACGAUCCUAGAACCACCUGCACCUUGAGAUGUUUCUGUAAAUGGGUACUUGUGAUCACACUACGGGAAUCUCUGUGGUAUAUACCUGGGGCCAUUCUAGGCUCUUUCAAGUGACUUUGGAAUUCUCGGGUGCCAA,0.224
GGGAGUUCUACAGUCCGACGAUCUAAUUUAUUACAGUUUACUCUACUGCAUUUCUGUCAAGUUGAAAUGCAUGCCCUUCAGGGGAAGACUGUGAGUCAAGUUUAAUAAAUAAAAACCUAAUACUAAGCAAUAUUGGAAUUCUCGGGUGCCAA,0.632
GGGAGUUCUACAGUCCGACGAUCAUCUAGGACCCUAGUCUUUGUACUUGAUGCCUUGUUUCCCCCCUUUUCUUCUUUAAAAUUGGGGACCUAUAACAUCAUCGCUGUUGCGGAAUCCACUUAGGCAUGUGUCCUGGAAUUCUCGGGUGCCAA,0.349
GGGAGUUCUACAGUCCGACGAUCUUAACGCAAAAAUCCACAGUCCAAAGUCUCAUCUGAGACAAGGCAAGUCCCUUCCACCUAUGAGCCUGUAAAAUCAAAAGCAAGCUAGUUACUUCCUAGAUACCAACAGGUGGAAUUCUCGGGUGCCAA,0.526
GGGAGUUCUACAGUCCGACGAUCUUACAGCACUUGGGAUUGUGUUUUCUUGUACAUUUUGUAUUUUAAAAAUCUUUUAUAGGAGUGCAGUGCUCCUAUACAAAGGGAAGAUGAGCCAGCAGUCCAGGCUCCUCUGGAAUUCUCGGGUGCCAA,0.599

# Mixed results
Substance,target,test,system,setting,scale,quantity,value
"PhoQ, residues 284 288 289 292 302 303 TNSAEL","PhoP, residues 12 14 15 18 19 LHSVQ (Escherichia coli, UniProt P23836)","Sort-seq, measured: YFP reporter",E. coli,"PhoQ-PhoP variant library, together with: 10 µM Mg2+","relative to: high Mg2+ state, higher = stronger signaling",fold induction,1.05

# Excerpt of the above (mixed results):
Substance,target,test,system,setting,scale,quantity,value
"PhoQ, residues 284 288 289 292 302 303 TNSAEL","PhoP, residues 12 14 15 18 19 LHSVQ (Escherichia coli, UniProt P23836)","Sort-seq, measured: YFP reporter",E. coli,"PhoQ-PhoP variant library, together with: 10 µM Mg2+","relative to: high Mg2+ state, higher = stronger signaling",fold induction,1.05
